Measured values from different studies.
Numbered parts are unrelated; each lists some results of a single study.

Set 1 — technique: protein-binding microarray; form: double-stranded DNA, one strand shown; sample: in vitro; concentration: not given; direction: higher = stronger binding
Target: Microphthalmia-associated transcription factor, full length (MITF, Homo sapiens, UniProt O75030-10, residues 1-413)
Setting: k-mer, scored over probes, only values ≥0.25
Target sequence (chain): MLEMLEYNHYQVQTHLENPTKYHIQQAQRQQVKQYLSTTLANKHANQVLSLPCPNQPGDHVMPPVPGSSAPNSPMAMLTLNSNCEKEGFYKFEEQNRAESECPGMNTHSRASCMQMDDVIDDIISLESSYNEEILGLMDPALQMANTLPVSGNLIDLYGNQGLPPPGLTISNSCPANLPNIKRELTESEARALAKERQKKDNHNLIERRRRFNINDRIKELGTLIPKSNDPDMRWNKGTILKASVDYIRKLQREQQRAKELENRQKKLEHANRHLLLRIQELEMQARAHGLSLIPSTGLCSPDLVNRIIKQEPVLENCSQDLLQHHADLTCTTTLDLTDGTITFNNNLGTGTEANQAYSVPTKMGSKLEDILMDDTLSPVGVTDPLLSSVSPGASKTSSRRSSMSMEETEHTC
| Sequence | E-score |
| --- | --- |
| ACGTGCT | 0.342 |
| CCACACG | 0.329 |
| GCATCAC | 0.268 |
| ACATGAC | 0.413 |
| ACTCATG | 0.266 |

Set 2 — technique: RNA Bind-n-Seq; form: RNA; sample: in vitro; concentration: 365 nM; baseline: no-protein control; direction: higher = stronger binding
Target: RNA binding protein fox-1 homolog 2, RRM domain, GST-SBP tag (RBFOX2, Homo sapiens, UniProt O43251-10, residues 100-194)
Setting: natural RNA segment, single round, ends assumed
Shared flanks, not repeated: GGGAGUUCUACAGUCCGACGAUC … UGGAAUUCUCGGGUGCCAA
Construct (chain): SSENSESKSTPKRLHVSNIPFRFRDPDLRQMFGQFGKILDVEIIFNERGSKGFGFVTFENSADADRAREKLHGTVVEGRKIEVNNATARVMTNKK
| Sequence | RBNS enrichment (R) |
| --- | --- |
| UUCUUCUCCUUCUUUUUUUUUCAGAGGUGGGAUGGGUGGAGAUUUUUUAAAAAUCCCACGUGUGAAAGUUUACUGGCUUUAUUAGCAAGUUCCUUUUUACUUCAAGCUAC | 0.319 |
| CUUCUCAAACAAAAAGAAAAGAAAAACGAAUGAUUCAUCUGCUUUAAUCAGUGUGAUUAAUGCAGCACCCAUUGCCCCGGGAACCGUUUCUGCUGUACUAUCUGGAUACU | 0.934 |
| UGAGAUGGGGGCCUUGCAGCCCAGCACCCCCUCACUGCCAGCAGGGCACCAGGAGACAGGGUCCAGGAAUCCAGGUAUGCCUGUACUUGCUUGAGCAACGACUGAGGGCU | 0.727 |
| AGGAAGCUUGGGUUUGAAGCCUGCCCAGACUGGGCUGGGAGUGUUCUCAGAGUCUCAACACAGGAACGGAGUCUUCGGCUAUCAUGGACUAGGCUGAGGCUAGUGCUGGU | 1.14 |
| CCGAGAAGCCAGGGGCCACCCUGUGAGUCCCAGCAUCCAAAGCCCCGAGAACGAGGAAGAUGGAUGUCCCAGCUCCCAAAGGGAGGAUUCUCCCUUCCUCCUCCUUCUUU | 0.657 |
| GGGAGAAUUAGCUAGUAGCAAUGUGCCUUGAUGAAGAUUUCCUGCAGGCAGCAAAACACCAAAUCACAACGCUUUGCUUCUCGACAUCAUGGGCCAGGUCCUCAGUUUCU | 0.31 |
| CCUCGUGCCUGGCUCGUCUGCCACCUACAUUUCUCUUUCCAGCUGCUGUUUUGUAAAAAGAAAAAGAAAAAAGAAGCCCAAACUAGUGAGAGUAAUAUCUAAUUAUCUCA | 0.355 |
| CACUUGGGAGAGGUGAGGAAGAGCAAGAGAAGCUGGGGGUGUGGAGAGGCAGGUCCCCCAGGCUGGGAUGCUGGCCCCUAGACUAGGGUGCUGACCCCUGGGCUGGGGUG | 0.667 |
| CUGUUUUUGUGAGAGACUUUUGCCUUCGUAAUGUUAACCGUUUCAGGACCACGUUUAUAGCUUCAGGACCUGGCUACGUAAUUAUACUUAAAAUAUCCACUGGACACUGU | 0.33 |

Set 3 — technique: protein-binding microarray; form: double-stranded DNA, one strand shown; sample: in vitro; concentration: 2540 nM top; setting: 60-bp whole probe; with: salmon DNA 0.4 mg/ml; baseline: random background probes; direction: higher = stronger binding; shared flanks, not repeated: GCCTAGCAC … GTCTTGATTCGCTTGACGCTGCTG
Target: Interferon regulatory factor 3, full length, phosphomimetic (IRF3, Homo sapiens, UniProt Q14653, residues 1-427, S386D/S396D/S398D/S402D/T404D/S405D)
Target sequence (chain): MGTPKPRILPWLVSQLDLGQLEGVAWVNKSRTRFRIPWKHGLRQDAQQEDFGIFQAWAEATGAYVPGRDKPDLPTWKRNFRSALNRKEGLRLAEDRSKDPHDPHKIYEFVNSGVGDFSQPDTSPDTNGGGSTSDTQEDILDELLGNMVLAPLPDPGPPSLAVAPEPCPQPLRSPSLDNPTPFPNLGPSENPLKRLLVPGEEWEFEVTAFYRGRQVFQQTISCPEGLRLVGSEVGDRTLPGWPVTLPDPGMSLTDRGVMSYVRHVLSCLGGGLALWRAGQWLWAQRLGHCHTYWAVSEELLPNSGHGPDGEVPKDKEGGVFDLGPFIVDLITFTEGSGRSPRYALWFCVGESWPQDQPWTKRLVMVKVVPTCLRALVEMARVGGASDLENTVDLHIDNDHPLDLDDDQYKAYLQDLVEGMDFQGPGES
| Sequence | fitted relative affinity [z-score] |
| --- | --- |
| ATATATGTAATCATTCACCTGGTGCTA | 0.616 |
| GACGTACTGGACTTTCGGGACGTGCTA | 0.205 |
| TTAGATTTCAGTGTCGATTAGTGCTAG | 1.1 |
| TACCCTTTGAAAGTTGTTTTAGTGCTA | 0.128 |
| GACGGTATCGGGTTTCGGGTCGTGCTA | 3.19 |
| TTAGGGATCCTTCTCCTTTAGTGCTAG | 5.18 |
| GACGGTATAGACTTTCGGGACGTGCTA | 0.168 |
| TCAGCTCTGCGGTTCAGACTGTGCTAG | -0.00686 |
| GACGGTATCGACGTTCGGGACGTGCTA | 0.249 |
| TTAGGTATCGGGCTGGGTTAGTGCTAG | 0.152 |

Single results of other studies — technique: nitrocellulose filter binding; form: RNA; sample: in vitro; concentration: 100 nM; baseline: round 9 selected pool; direction: higher = stronger binding
Target: SMN1, full length (human, UniProt Q16637, residues 1-294)
Chain of UniProt Q16637 (whole entry, looked up): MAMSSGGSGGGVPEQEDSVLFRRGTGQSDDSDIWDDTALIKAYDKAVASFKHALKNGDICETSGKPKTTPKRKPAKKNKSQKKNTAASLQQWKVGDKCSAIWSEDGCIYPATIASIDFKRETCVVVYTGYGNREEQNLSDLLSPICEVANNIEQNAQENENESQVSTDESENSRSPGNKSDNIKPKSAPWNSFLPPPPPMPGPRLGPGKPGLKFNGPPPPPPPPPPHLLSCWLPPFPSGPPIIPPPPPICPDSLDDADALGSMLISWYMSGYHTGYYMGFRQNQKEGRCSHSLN
Setting: whole RNA, constant flanks, single concentration, ends assumed
| Sequence | relative RNA binding |
| --- | --- |
| GGGCUCACCACGCACGUGAGGACGGUGAGGCAAUGUGGUACCUCACCACGGCAAGCU | 1.1 % of pool |
| GGGCUCACCACGCACGGGGGGCAGGUGGGGUUUUGCGUGACCUCACCACGGCAAGCU | 2.5 % of pool |

Excerpt of the above (single results of other studies):
| Sequence | relative RNA binding |
| --- | --- |
| GGGCUCACCACGCACGGGGGGCAGGUGGGGUUUUGCGUGACCUCACCACGGCAAGCU | 2.5 % of pool |
